Measurements of several laboratories.
Compare with care: the assays were run in different laboratories. Numbers after ± are the reported error.

O=[N+]([O-])c1nccn1CC(O)CNCCBr (stereo not shown)  IC50 (A549; cell viability, SRB; 4 h oxic then 120 h oxic): > 130000 nM
CC(C)C[C@H](NC(=O)[C@H](Cc1c[nH]c2ccccc12)NC(=O)[C@@H](NC(=O)[C@H](CC(C)C)NC(=O)[C@H](Cc1ccccc1)NC(=O)[C@@H](NC(=O)[C@H](CCCCN)NC(=O)[C@H](CCCNC(=N)N)NC(=O)[C@H](CCCCN)NC(=O)[C@H](CCCCN)NC(=O)[C@H](CCCCN)NC(=O)[C@@H]1CCCN1C(=S)Nc1ccc2c(c1)C(=O)OC21c2ccc(O)cc2Oc2cc(O)ccc21)C(C)C)[C@@H](C)O)C(=O)O  IC50 (A549; CCK-8; liposome-delivered): 45000 nM
COc1cc(CCC[P+](c2ccccc2)(c2ccccc2)c2ccccc2)c(OC)c2c1OCO2.[I-]  LC50 (A549; NCI60 SRB): > -4 log M
ClCc1ccnc(-c2cc(CCl)ccn2)c1.F[P-](F)(F)(F)(F)F.[Ir+3].[c-]1ccccc1-c1ccccn1.[c-]1ccccc1-c1ccccn1  mRNA fold change (A549; microarray, measured: COX3 (probe 238199_x_at); 3 µM, 24 h; baseline: untreated): 0.0642
CC(C)N1CCC(NC2CCN(c3cccc(-c4cc5cc(F)ccc5[nH]4)c3)CC2)CC1  TGI (A549): 3520 nM
CN1CCC(CNc2ccc3ncc(-c4cccc(OC(F)(F)F)c4)n3n2)CC1  maximum inhibition (human coronavirus OC43; virus-induced cell killing; MRC-5; screen): 8.92%
O=C(CCc1ccc(O)cc1)c1c(O)cc(O)cc1O  2-NBDG uptake (A549; fluorescence imaging; 30 µM, together with: 50 µM 2-NBDG, 15 min; baseline: DMSO): 67%
C#Cc1cccc(Nc2ncnc3cc(OCCOC)c(OCCOC)cc23)c1  sublethal dose (A549; MTT): 2 µM
COC(=O)C1CCN(C(=O)c2ccc(NCc3cnc4nc(N)nc(N)c4n3)cc2)CC1  cell growth (A549; CellTiter-Glo; 10 µM; 100 none, 0 cytostatic, -100 cytotoxic): 157 ± 3.55%
O=C1[O][Pt]2([NH][C@@H]3CCCC[C@H]3[NH]2)[O]C1=O  IC50 (A549; cytotoxicity, MTT; 72 h): 900 ± 130 nM
Nc1ncnc2c1ncn2[C@@H]1O[C@@H]2COP(=O)(O)O[C@H]3[C@@H](O)[C@H](n4cnc5c(=O)[nH]cnc54)O[C@@H]3COP(=O)(O)O[C@H]2[C@H]1O  pathway fold enrichment (HFF-1; RNA sequencing Reactome analysis, measured: Reactome R-HSA-5627123; together with: West Nile virus infection; baseline: West Nile virus infected cells, downregulated pathway): 13.5
CN1CCN(C2(CNC3CCN(c4cccc(-c5cc6cc(F)ccc6[nH]5)c4)CC3)CCC2)CC1  GI50 (A549): 1850 nM
COc1c(CCC[P+](c2ccccc2)(c2ccccc2)c2ccccc2)cc2c(c1OC)OCO2.[I-]  GI50 (A549; NCI60 SRB): -5.43 log M
CC1=CC(=O)c2c(O)cccc2C1=O  selectivity index (A549; MTT; baseline: IC50 MRC-5 over IC50 A549): 0.37
COc1c(C)c2c(c(O)c1C/C=C(\C)CCC(=O)O)C(=O)OC2  IC50 (A549; cell proliferation; lung cancer): 562 nM
O=C(c1cc(Cc2n[nH]c(=O)c3ccccc23)ccc1F)N1CCN(C(=O)C2CC2)CC1  maximum inhibition (human coronavirus OC43; virus-induced cell killing; MRC-5; screen): 8.63%

For quick reference, copied from above:
CC(C)N1CCC(NC2CCN(c3cccc(-c4cc5cc(F)ccc5[nH]4)c3)CC2)CC1  TGI (A549): 3520 nM
